Experimental data of several laboratories.
Each line is one published result; not all experiments were run side by side. ± gives the spread as reported.
chemosensory protein 1: chemosensory protein 1 (Chilo suppressalis, UniProt V9PY22)
SLC10A1: Hepatic sodium/bile acid cotransporter (SLC10A1, Homo sapiens, UniProt Q14973)
Protein farnesyltransferase: Protein farnesyltransferase (Homo sapiens, UniProt P49354+P49356)
UGT1A9: UDP-glucuronosyltransferase 1A9 (UGT1A9, Homo sapiens, UniProt O60656)
CXCR4: C-X-C chemokine receptor type 4 (CXCR4, Homo sapiens, UniProt P61073)
T1: DNA:RNA hybrid triplex, strand 1 RNA, strand 2 DNA; chain A; chain T
T2: RNA aptamer; CUUGGUUUAGGUAAUGAG

CCC/C=C/COC(C)=O
remaining 1-NPN fluorescence (chemosensory protein 1; binding, competitive ligand, fluorescence competitive binding; highest concentration tested, pH 7.4, protein 2 µM, added: 1-NPN 2 µM; relative to: no ligand): 83.1 ± 0.86%

CC(C)C[C@H](NC(=O)[C@H](Cc1ccccc1)NC(=O)c1cnccn1)B(O)O
taurocholate uptake (SLC10A1; inhibitor; HEK293 expressing NTCP; 100 µM, 5 min, added: taurocholate 10 µM; relative to: no compound): 107 ± 4%

O=C(CCn1ccc2ccc(Cl)cc21)N(c1ccc(F)cc1)c1ccc(F)cc1
maximum fold increase (Proteasome subunit alpha type-2/Proteasome subunit alpha type-6, 20S proteasome (Homo sapiens, UniProt P25787+P60900); proteolysis, activator, fluorogenic peptide; purified 20S proteasome; up to 30 µM, added: Suc-LLVY-AMC, Z-LLE-AMC, Boc-LRR-AMC; relative to: vehicle): 4.4

CNc1ncnc2c1ncn2[C@@H]1O[C@H](COP(=O)(O)OP(=O)(O)OP(=O)(O)O)[C@@H](O)[C@H]1O.N.N.N.N
breakthrough time (GPR17 (Homo sapiens, UniProt Q13304); frontal affinity chromatography-MS; immobilized on IAM column; 1 µM, compound mixture): 7.53 min

O=C1C(CC[S+]([O-])c2ccccc2)C(=O)N(c2ccccc2)N1c1ccccc1 (stereo not shown)
taurocholate uptake (SLC10A1; inhibitor; HEK293 expressing NTCP; 100 µM, 5 min, added: taurocholate 10 µM; relative to: no compound): 96.1 ± 3.2%

CC1=C(/C=C/C(C)=C/C=C/C(C)=C/C(=O)C(Cl)Cl)C(C)(C)CCC1
KI (Retinal dehydrogenase 2 (Gallus gallus, UniProt O93344); time-dependent inactivation, inhibitor): 128 nM

CSTL
relative fluorescence increase (Protein farnesyltransferase; enzyme activity, substrate, fluorimetric; peptide; 3 µM, 30 min, added: 9 µM farnesyl diphosphate; relative to: dansyl-GCVLS (set to 1.0)): 0

CC[C@H](C)[C@H](NC(=O)[C@H](CC(C)C)NC(=O)[C@H](CC(C)C)NC(=O)CNC(=O)[C@H](Cc1ccc(O)cc1)NC(=O)[C@H](CCCNC(=N)N)NC(=O)[C@H](CO)NC(C)=O)C(=O)N[C@@H](CCCCN)C(=O)N[C@@H](C)C(=O)N[C@@H](Cc1ccccc1)C(=O)N[C@@H](CO)C(=O)N[C@@H](CCSC)C(=O)N[C@H](C(=O)N[C@@H](C)C(=O)N[C@@H](C)C(=O)N[C@@H](CCC(=O)O)C(=O)N[C@H](C(=O)N[C@@H](C)C(=O)N[C@@H](CCCNC(=N)N)C(=O)N[C@@H](CCCNC(=N)N)C(=O)N[C@H](C(=O)N[C@@H](CCCNC(=N)N)C(=O)N[C@@H](CCC(=O)O)C(=O)N[C@@H](Cc1ccccc1)C(=O)N[C@@H](CCCNC(=N)N)C(N)=O)[C@@H](C)O)[C@@H](C)O)[C@@H](C)O
ΔΔG of calcium binding (calmodulin 1-148 (mammalian); calcium binding at sites I and II, equilibrium calcium titration; 2 eq; relative to: N-domain over C-domain sites): 1.01 ± 0.37 kcal/mol

Cc1cc(NC(=O)c2cccc(NC(=O)/C=C/CN(C)C)c2)ccc1Nc1nccc(-c2cccnc2)n1
inhibition (PRKDC (Homo sapiens, UniProt P78527); ATP-biotin probe labeling, KiNativ; A-375; 1 µM, 3 h, first of two sites): 34.9%

Cc1cc(O)c2c(c1)C(=O)c1cc(O)cc(O)c1C2=O
Vmax (UGT1A9; substrate; pH 7.4, 37 °C): 2930 pmol/mg/min

Cc1cc2nc3c(=O)[nH]c(=O)nc-3n(C[C@H](O)[C@H](O)[C@H](O)CO)c2cc1C
koff (Riboflavin-binding protein (Gallus gallus, UniProt P02752); riboflavin release, fluorescence; native holoprotein, added: guanidine hydrochloride 6 M): 0.0131 ± 0.0001 s⁻¹

CN(Cc1ccc(CN(C)Cc2ccccc2F)cc1)Cc1ccccc1F
lowest effective concentration (CXCR4; binding, competition binding; MDA-MB-231; semi-quantitative screen, added: biotinylated TN14003): > 1000 nM

C=CC(C)=CCC=C(C)C
remaining 1-NPN fluorescence (chemosensory protein 1; binding, competitive ligand, fluorescence competitive binding; highest concentration tested, pH 7.4, protein 2 µM, added: 1-NPN 2 µM; relative to: no ligand): 73.9 ± 1.7%

CC(=O)N[C@@H](Cc1ccccc1)C(=O)N[C@@H](CO)C(=O)N[C@H](C(=O)N[C@@H](CC(=O)O)C(=O)N[C@@H](Cc1ccc(OP(=O)(O)O)cc1)C(=O)NCC(=O)N[C@@H](CCC(=O)O)C(=O)N[C@@H](CC(C)C)C(=O)N[C@@H](CC(=O)O)C(=O)N[C@@H](Cc1ccccc1)C(=O)N[C@@H](CCC(N)=O)C(N)=O)C(C)C
conformational entropy change (Tyrosine-protein phosphatase non-receptor type 11, N-SH2 domain (PTPN11, Homo sapiens, UniProt Q06124); peptide binding; concentration not given, 298 K): -32.6 J/(mol·K)

CC1=C(/C=C/C(C)=C/C=C/C(C)=C/C=C/C=C(C)/C=C/C=C(C)/C=C/C2=C(C)C[C@H](O)CC2(C)C)C(C)(C)C[C@H](O)C1
Kd (Albumin (ALB, Homo sapiens, UniProt P02768); surface plasmon resonance; 25 °C): 2000 ± 30 nM

CSCCNc1nc(SCCC(F)(F)F)nc2c1ncn2[C@@H]1O[C@H](COP(=O)([O-])OP(=O)([O-])C(Cl)(Cl)P(=O)([O-])[O-])[C@@H](O)[C@H]1O.[Na+].[Na+].[Na+].[Na+]
breakthrough time change (Uracil nucleotide/cysteinyl leukotriene receptor, short isoform (GPR17, Homo sapiens, UniProt Q13304, R283I); frontal affinity chromatography-MS; mutated receptor IAM column; concentration not given; relative to: wild type column): 24.1%

O=C(O)c1ccc(NC(c2ccc(F)cc2)c2ccc3cccnc3c2O)cc1 (stereo not shown)
remaining activity (CAAX prenyl protease 2 (Homo sapiens, UniProt Q9Y256); enzyme activity, inhibitor; 10 µM): 23 to 32%

Cn1cc(-c2ccncc2)c(-c2ccc(OCc3ccc4ccccc4n3)cc2)n1
ID50 (Phosphodiesterase 10A (Macaca mulatta, UniProt H9FP16); PET; rhesus monkey, striatum; intravenous, 50% target occupancy): 0.3 µmol/kg

CCCN(CCC)CCc1cccc2c1CC(=O)N2
taurocholate uptake (SLC10A1; inhibitor; HEK293 expressing NTCP; 100 µM, 5 min, added: taurocholate 10 µM; relative to: no compound): 133 ± 4%

CC[C@H](C)[C@H](NC(=O)[C@H](Cc1c[nH]cn1)NC(=O)[C@H](CC(=O)O)NC(=O)[C@H](C)NC(=O)[C@H](CC(C)C)NC(=O)[C@@H](NC(=O)[C@@H](NC(=O)[C@H](CC(C)C)NC(=O)[C@H](CCCNC(=N)N)NC(=O)[C@H](C)NC(=O)[C@@H](NC(=O)[C@H](CCCNC(=N)N)NC(=O)[C@@H]1CCCN1C(=O)[C@@H](NC(=O)[C@H](CCC(N)=O)NC(=O)CN)C(C)C)[C@@H](C)O)[C@@H](C)CC)[C@@H](C)O)C(=O)N[C@@H](CS)C(=O)N[C@@H](CCC(N)=O)C(=O)N[C@H](C(=O)N[C@H](C(=O)N[C@H](C(=O)N[C@@H](CCC(N)=O)C(=O)N[C@@H](CC(=O)O)C(=O)N[C@@H](Cc1ccccc1)C(=O)N[C@@H](C)C(=O)N[C@@H](CCCNC(=N)N)C(=O)O)[C@@H](C)O)[C@@H](C)CC)[C@@H](C)CC
IC50 fold change (NR1D1 (Homo sapiens, UniProt P20393); NCoR peptide binding, competitor, TR-FRET; 1 h, added: labelled NCoR 2040-2065 peptide; relative to: mutant over wild-type peptide): 2.5

N=C(N)c1ccc(N=NNc2ccc(C(=N)N)cc2)cc1
melting temperature (T1, DNA:RNA hybrid triplex, strand 1 RNA, strand 2 DNA; UV melting; 20 µM, NaCl 18 mM, no triplex without ligand): 34.2 °C

N#Cc1ccccc1Oc1ccc(Cl)cc1O
Ki (Enoyl-[acyl-carrier-protein] reductase [NADPH] FabI (Staphylococcus aureus, UniProt Q6GI75); enzyme activity, inhibitor, progress curve kinetics, item: NADPH): 0.06 ± 0.01 nM

O=C(O)[C@H]1O[C@@H](O[C@H]2c3cc4ccc5cccc6c7ccccc7c(c3C=C[C@@H]2O)c4c56)[C@H](O)[C@@H](O)[C@@H]1O (relative stereo)
kcat (UGT1A10 (Homo sapiens, UniProt Q9HAW8); glucuronidation, substrate; UGT-expressing HEK293 homogenate; normalized to UGT expression): 0.005 ± 0.0005 s⁻¹

KQTARKSTGGWW (acetyl-Lys9)
kcat/Km (HDAC8 (Homo sapiens, UniProt Q9BY41); substrate, HPLC; peptide; 1 µM, 1 h, pH 8, 37 °C): 58 ± 1.1 M⁻¹ s⁻¹

C=C(F)C(=O)N1CCN(c2nc(OC[C@@H]3CCCN3CCCOCCC(=O)N[C@H](C(=O)N3C[C@H](O)C[C@H]3C(=O)NCc3ccc(-c4scnc4C)cc3)C(C)(C)C)nc3c2CCN(c2cccc4cccc(Cl)c24)C3)C[C@@H]1CC#N
Dmax (GTPase KRas (KRAS, Homo sapiens, UniProt P01116, G12C); protein degradation, degrader; human cells): 75 to 90%

CCOC(=O)[C@H](CCc1ccccc1)N[C@@H](C)C(=O)N1CCC[C@H]1C(=O)O
taurocholate uptake (SLC10A1; inhibitor; HEK293 expressing NTCP; 100 µM, 5 min, added: taurocholate 10 µM; relative to: no compound): 111 ± 4%

O=C1CCN1C(=O)OCc1ccccc1
phosphopantetheine acylation (Erythronolide synthase EryA2, module 3 ACP, holo (eryA, Saccharopolyspora erythraea, UniProt Q03132); substrate, LC-MS of tryptic digest; 10 equivalents, 1 h, pH 7, room temperature): ~80%

CLQL
relative fluorescence increase (Protein farnesyltransferase; enzyme activity, substrate, fluorimetric; peptide; 3 µM, 30 min, added: 9 µM farnesyl diphosphate; relative to: dansyl-GCVLS (set to 1.0)): 0

CCCCC/C=C\C/C=C\CCCCCCCC(=O)O
fluorescence intensity (Chilo suppressalis CSP2; binding, competitive fluorescence displacement; 30 µM, pH 7.4): 48 ± 1.39%

O=C(O)Cc1ccc(O)c(O)c1
NADH oxidase inhibition (NADH oxidase, rat; lysed brain mitochondria; concentration not given, 30 min preincubation): no inhibition

Nc1ncnc2c1ncn2[C@@H]1O[C@H](C(=O)N2CCN(CC(=O)Nc3cccc4c3CNC4=O)CC2)[C@@H](O)[C@H]1O
deuterium exchange delay (PARP1 (Homo sapiens, UniProt P09874); hydrogen-deuterium exchange MS; concentration not given, contact point peptides, added: single-strand break DNA; relative to: with over without compound): 10 fold

c1cc(CN2CCCCC2)ccc1CN1CCCCC1
lowest effective concentration (CXCR4; binding, competition binding; MDA-MB-231; semi-quantitative screen, added: biotinylated TN14003): 10 nM

O=C1C[C@@H](c2ccc(O)cc2)Oc2cc(O)cc(O)c21
Vmax (UGT1A9; substrate; pH 7.4, 37 °C): 5000 pmol/mg/min

NC[C@H]1O[C@H](O[C@H]2[C@H](O)[C@@H](O[C@H]3O[C@H](CO)[C@@H](O)[C@H](N)[C@H]3O)[C@H](N)C[C@@H]2N)[C@H](N)C[C@@H]1O
Kd (T2, RNA aptamer; square wave voltammetry; apparent, on gold electrode, electrochemical aptamer sensor): 45 nM

For quick reference, copied from above:
CLQL
relative fluorescence increase (Protein farnesyltransferase; enzyme activity, substrate, fluorimetric; peptide; 3 µM, 30 min, added: 9 µM farnesyl diphosphate; relative to: dansyl-GCVLS (set to 1.0)): 0

CCCCC/C=C\C/C=C\CCCCCCCC(=O)O
fluorescence intensity (Chilo suppressalis CSP2; binding, competitive fluorescence displacement; 30 µM, pH 7.4): 48 ± 1.39%

O=C(O)Cc1ccc(O)c(O)c1
NADH oxidase inhibition (NADH oxidase, rat; lysed brain mitochondria; concentration not given, 30 min preincubation): no inhibition

Nc1ncnc2c1ncn2[C@@H]1O[C@H](C(=O)N2CCN(CC(=O)Nc3cccc4c3CNC4=O)CC2)[C@@H](O)[C@H]1O
deuterium exchange delay (PARP1 (Homo sapiens, UniProt P09874); hydrogen-deuterium exchange MS; concentration not given, contact point peptides, added: single-strand break DNA; relative to: with over without compound): 10 fold
